Published values collected from several papers.
A part holds a random share of what one study measured.
Chain of UniProt P22607 (whole entry, looked up): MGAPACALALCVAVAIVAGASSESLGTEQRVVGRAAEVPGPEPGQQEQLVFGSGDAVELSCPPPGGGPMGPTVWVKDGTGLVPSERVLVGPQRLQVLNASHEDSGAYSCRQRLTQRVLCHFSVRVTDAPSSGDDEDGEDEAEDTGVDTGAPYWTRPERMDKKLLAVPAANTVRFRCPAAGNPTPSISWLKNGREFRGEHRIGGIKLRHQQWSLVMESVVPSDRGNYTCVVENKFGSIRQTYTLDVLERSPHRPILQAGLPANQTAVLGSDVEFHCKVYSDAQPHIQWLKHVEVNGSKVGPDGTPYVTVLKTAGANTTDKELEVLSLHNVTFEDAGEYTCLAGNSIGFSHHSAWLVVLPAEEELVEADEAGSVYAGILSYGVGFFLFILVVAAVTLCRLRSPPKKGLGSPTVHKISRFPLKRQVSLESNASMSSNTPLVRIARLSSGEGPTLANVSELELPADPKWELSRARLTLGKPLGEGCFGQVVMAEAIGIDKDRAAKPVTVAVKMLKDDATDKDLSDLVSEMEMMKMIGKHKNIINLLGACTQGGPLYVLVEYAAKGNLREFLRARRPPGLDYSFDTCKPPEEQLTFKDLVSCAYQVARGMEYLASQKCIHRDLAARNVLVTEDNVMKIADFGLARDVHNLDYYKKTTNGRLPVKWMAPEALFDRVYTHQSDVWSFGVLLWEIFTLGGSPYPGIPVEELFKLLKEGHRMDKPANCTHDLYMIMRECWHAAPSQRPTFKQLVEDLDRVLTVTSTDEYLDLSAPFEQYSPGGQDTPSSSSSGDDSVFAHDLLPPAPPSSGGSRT
Chain of UniProt P49137 (whole entry, looked up): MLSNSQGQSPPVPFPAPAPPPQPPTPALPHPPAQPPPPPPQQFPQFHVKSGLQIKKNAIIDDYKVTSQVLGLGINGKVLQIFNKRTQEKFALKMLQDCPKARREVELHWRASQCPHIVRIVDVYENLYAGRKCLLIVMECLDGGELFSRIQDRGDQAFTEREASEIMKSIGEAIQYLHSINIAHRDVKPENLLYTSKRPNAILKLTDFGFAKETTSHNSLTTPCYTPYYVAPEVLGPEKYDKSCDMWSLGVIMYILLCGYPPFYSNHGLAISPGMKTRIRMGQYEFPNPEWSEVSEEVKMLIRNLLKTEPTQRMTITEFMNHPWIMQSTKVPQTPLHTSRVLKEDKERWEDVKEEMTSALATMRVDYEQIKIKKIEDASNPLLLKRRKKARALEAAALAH
Chain of UniProt Q8WTQ7 (whole entry, looked up): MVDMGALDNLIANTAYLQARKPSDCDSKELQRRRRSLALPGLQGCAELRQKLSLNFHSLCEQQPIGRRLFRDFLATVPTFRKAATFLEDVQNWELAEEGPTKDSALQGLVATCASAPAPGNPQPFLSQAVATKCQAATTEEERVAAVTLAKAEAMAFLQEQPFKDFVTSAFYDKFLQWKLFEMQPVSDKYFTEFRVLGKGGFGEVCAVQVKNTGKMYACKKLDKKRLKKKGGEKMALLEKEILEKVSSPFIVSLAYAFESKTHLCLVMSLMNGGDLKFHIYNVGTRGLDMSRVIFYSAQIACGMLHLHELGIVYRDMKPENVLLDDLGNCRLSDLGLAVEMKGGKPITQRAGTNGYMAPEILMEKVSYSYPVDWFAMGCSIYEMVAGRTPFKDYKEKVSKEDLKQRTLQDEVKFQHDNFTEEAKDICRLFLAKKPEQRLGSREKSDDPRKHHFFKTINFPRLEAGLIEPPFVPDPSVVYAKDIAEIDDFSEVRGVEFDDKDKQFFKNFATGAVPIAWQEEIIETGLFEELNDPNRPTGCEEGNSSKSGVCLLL
Chain of UniProt Q15349 (whole entry, looked up): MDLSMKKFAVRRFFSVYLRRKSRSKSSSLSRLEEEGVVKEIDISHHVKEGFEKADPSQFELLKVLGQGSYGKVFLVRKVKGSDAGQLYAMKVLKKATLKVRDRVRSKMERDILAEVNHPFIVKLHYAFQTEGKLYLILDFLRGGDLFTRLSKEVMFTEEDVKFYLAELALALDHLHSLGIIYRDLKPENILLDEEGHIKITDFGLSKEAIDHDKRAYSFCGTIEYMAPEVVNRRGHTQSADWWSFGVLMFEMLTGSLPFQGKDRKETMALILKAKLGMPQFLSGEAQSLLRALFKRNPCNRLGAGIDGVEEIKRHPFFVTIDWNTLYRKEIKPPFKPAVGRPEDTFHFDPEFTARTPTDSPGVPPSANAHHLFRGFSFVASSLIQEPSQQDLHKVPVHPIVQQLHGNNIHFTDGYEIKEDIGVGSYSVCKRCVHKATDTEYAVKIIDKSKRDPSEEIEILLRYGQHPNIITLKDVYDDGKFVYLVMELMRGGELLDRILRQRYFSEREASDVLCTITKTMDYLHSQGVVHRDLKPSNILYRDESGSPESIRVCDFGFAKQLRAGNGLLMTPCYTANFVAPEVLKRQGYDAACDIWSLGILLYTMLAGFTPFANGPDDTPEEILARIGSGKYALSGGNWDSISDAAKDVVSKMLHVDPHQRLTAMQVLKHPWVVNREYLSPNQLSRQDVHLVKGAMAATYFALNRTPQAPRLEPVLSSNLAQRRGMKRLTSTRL
Chain of UniProt Q9Y6M4 (whole entry, looked up): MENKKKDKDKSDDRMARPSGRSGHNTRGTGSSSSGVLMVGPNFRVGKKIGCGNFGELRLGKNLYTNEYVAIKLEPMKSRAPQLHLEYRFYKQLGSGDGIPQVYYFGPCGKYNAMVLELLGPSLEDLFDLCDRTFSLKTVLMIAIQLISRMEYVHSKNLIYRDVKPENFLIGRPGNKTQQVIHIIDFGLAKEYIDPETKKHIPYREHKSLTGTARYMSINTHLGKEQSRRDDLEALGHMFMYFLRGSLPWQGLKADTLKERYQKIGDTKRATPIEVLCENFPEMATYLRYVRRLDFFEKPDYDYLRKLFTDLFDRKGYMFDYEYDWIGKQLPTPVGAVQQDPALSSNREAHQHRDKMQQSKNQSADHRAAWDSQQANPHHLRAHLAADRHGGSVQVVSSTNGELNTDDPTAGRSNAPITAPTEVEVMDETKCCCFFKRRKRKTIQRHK
Chain of UniProt P78368 (whole entry, looked up): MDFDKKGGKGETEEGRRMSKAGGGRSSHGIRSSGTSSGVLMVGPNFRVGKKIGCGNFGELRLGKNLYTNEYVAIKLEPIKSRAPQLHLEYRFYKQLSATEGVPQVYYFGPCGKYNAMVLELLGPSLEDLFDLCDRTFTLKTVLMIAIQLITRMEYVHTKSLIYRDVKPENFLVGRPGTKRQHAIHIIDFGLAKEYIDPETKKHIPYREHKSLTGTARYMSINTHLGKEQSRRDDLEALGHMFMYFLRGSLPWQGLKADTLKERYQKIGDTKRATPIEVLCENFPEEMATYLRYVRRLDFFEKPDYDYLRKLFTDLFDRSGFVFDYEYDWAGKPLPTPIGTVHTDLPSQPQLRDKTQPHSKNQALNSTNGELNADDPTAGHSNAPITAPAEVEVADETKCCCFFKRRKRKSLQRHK
Chain of UniProt P11362 (whole entry, looked up): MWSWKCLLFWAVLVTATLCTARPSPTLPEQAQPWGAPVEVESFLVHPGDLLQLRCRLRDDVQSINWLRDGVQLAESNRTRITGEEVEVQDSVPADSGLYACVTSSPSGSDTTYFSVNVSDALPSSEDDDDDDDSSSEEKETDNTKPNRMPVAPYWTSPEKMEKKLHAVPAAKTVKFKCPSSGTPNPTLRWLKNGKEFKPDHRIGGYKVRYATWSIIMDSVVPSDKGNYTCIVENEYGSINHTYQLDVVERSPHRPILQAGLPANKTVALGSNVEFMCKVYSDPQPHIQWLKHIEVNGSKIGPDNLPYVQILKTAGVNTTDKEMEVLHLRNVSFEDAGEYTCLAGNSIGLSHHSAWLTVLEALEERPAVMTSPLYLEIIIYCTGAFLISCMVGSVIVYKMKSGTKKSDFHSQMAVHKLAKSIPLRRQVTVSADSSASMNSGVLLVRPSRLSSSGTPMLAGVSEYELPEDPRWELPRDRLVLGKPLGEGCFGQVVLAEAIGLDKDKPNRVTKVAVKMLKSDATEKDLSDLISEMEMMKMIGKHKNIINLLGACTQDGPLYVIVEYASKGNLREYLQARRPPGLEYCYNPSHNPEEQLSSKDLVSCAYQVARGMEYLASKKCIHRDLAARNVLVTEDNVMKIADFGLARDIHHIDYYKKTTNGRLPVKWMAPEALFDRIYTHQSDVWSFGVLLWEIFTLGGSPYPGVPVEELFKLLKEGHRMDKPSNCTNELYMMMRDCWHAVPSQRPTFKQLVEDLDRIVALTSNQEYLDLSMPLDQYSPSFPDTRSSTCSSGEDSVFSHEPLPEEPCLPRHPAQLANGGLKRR
Chain of UniProt Q9HC98 (whole entry, looked up): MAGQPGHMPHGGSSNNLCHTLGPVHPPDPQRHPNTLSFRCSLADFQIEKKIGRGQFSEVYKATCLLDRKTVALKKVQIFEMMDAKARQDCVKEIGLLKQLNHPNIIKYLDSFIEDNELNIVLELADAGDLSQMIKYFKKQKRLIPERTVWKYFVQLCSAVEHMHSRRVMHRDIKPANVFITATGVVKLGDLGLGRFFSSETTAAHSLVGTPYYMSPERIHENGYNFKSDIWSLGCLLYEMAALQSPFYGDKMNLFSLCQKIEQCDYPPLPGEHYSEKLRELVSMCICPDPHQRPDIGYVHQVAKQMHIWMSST

Study 1 — read-out: enzyme activity; action: inhibitor; concentration: 0.5 µM; reference: control; measurement: remaining activity
Compound: COc1ccc2c(c1)c(C1=C(c3c[nH]c4ccccc34)C(=O)NC1=O)cn2CCCN(C)C
target = Ribosomal protein S6 kinase alpha-2 (RPS6KA2, Homo sapiens, UniProt Q15349); result = 5.46%
target = Casein kinase I isoform gamma-3 (CSNK1G3, Homo sapiens, UniProt Q9Y6M4); result = 77.8%
target = Rhodopsin kinase GRK7 (GRK7, Homo sapiens, UniProt Q8WTQ7); result = 106%
target = Wee1-like protein kinase (WEE1, Homo sapiens, UniProt P30291); result = 85.1%
target = Tyrosine-protein kinase ABL2 (ABL2, Homo sapiens, UniProt P42684); result = 77.7%
target = Angiopoietin-1 receptor (TEK, Homo sapiens, UniProt Q02763); result = 102%
target = Fibroblast growth factor receptor 1 (FGFR1, Homo sapiens, UniProt P11362); result = 59%
target = Serine/threonine-protein kinase TBK1 (TBK1, Homo sapiens, UniProt Q9UHD2); result = 90.7%
target = Tyrosine-protein kinase FRK (FRK, Homo sapiens, UniProt P42685); result = 91.3%
target = Casein kinase I isoform gamma-2 (CSNK1G2, Homo sapiens, UniProt P78368); result = 82.2%
target = MAP kinase-activated protein kinase 2 (MAPKAPK2, Homo sapiens, UniProt P49137); result = 99.7%
target = Fibroblast growth factor receptor 3 (FGFR3, Homo sapiens, UniProt P22607); result = 87.5%
target = Serine/threonine-protein kinase Nek6 (NEK6, Homo sapiens, UniProt Q9HC98); result = 101%

Study 2 — technique: RNA Bind-n-Seq; form: RNA; medium: in vitro; concentration: 200 nM; setting: whole 134-nt RNA, ends assumed; together with: 150 mM KCl; reference: input library; direction: higher = stronger binding; measurement: log2 enrichment
Target: Ras GTPase-activating protein-binding protein 1, full length (G3BP1, Homo sapiens, UniProt Q13283)
Chain of UniProt Q13283 (whole entry, looked up): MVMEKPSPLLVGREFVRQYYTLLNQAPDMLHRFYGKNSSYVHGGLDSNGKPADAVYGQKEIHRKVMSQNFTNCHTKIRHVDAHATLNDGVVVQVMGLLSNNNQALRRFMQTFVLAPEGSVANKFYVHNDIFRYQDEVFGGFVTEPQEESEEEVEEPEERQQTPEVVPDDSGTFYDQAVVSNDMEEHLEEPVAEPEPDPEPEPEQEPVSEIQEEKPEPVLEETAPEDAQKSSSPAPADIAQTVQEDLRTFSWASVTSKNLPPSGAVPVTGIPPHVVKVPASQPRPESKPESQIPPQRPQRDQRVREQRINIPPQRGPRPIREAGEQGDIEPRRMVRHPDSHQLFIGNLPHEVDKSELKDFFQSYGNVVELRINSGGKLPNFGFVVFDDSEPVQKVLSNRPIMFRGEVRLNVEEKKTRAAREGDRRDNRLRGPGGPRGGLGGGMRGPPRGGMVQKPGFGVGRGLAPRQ
Constant ends, left off below: GGGAGUUCUACAGUCCGACGAUC … UGGAAUUCUCGGGUGUCAAGG
Strand = UGAGUAGAUCUAGAAAUGACAGUAUGACUUUGUUUCUAACAGCUCCAAAAUGGAUCAAAAUGUUUGUUUUGGAUGAAGCAGAUGAAAUGU; result = -3.01
Strand = AGUCCUGUGCUACACAUCGUAUGUACCGAAUCGGGUUUUGGGGUUUUGGUUUUGGGGAAAGUAUUAUGUUACGCCGUUCGGAUCUGCACU; result = -0.495
Strand = CUGUGCUACACAUCGUAUGUACCGAAUCGGGGAAAAAGGGGUUUUUGGGGUUUUUUUGGGGAAAGUAUUAUGUUACGCCGUUCGGAUCUG; result = -0.23
Strand = CACAGACAACACGCACCCACACAGACACAGAGAAAAGGGGUUGGGAUGGGGACAGGGUGCACAGCAGGGCGGGGUAGGACCCCAGCCCCU; result = 1.88
Strand = CCUGUGCUACACAUCGUAUGUACCGAAUCGGGGAAAGGGGAAAAAAAGGGGAAAAAGGGGAAAGUAUUAUGUUACGCCGUUCGGAUCUGC; result = 0.0705
Strand = UCCUGUGCUACACAUCGUAUGUACCGAAUCGGGGUUUUUUGGGUUUUUUGGUUUUUUGGGAAAGUAUUAUGUUACGCCGUUCGGAUCUGC; result = -0.405
Strand = CUCAAGUCCUGUGCUACACAUCGUAUGUACCGAAUCGGGUGGGUUUGGGAGGGAAAGUAUUAUGUUACGCCGUUCGGAUCUGCACUUCCA; result = 1.11
Strand = UCCUGUGCUACACAUCGUAUGUACCGAAUCGGGUUUUUUUGGGAAAAAAAGGGAAAGGGAAAGUAUUAUGUUACGCCGUUCGGAUCUGCA; result = -0.401

Study 3 — technique: protein-binding microarray; form: double-stranded DNA, one strand shown; medium: in vitro; concentration: not given; direction: higher = stronger binding; measurement: E-score
Target: Protein C-ets-1 (ETS1, Homo sapiens, UniProt P14921, residues 1-441, K379A, full length assumed)
Setting: k-mer, scored over probes, only values ≥0.25
Construct (chain): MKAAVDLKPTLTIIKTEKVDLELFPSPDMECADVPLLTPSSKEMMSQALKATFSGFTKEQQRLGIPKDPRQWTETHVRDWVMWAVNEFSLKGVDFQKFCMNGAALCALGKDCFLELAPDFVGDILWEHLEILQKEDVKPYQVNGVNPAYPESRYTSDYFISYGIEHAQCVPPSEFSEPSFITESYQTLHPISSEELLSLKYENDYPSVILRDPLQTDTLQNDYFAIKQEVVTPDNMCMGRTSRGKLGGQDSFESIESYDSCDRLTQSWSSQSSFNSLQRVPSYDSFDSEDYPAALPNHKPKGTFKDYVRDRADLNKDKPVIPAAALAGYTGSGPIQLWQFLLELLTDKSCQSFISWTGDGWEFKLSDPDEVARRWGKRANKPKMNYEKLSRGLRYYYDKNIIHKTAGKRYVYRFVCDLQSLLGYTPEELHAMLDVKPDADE
Strand = TCCCCGGA; result = 0.286
Strand = GTGATCAC; result = 0.282
Strand = ACCGTTCC; result = 0.273
Strand = CCGGGACG; result = 0.363
Strand = ACGTACTA; result = 0.278
Strand = GGACTACA; result = 0.283
Strand = ATTCAAAT; result = 0.254
Strand = CGGTTGTC; result = 0.267

Other studies, line by line
SMILES = CN(C)CC#Cc1ccc(OCCCc2sc(N3CCc4cccc(C(=O)Nc5nc6ccccc6s5)c4C3)nc2C(=O)O)c(F)c1; cell line = primary human hepatocyte spheroids; test = ATP content; conditions = 1- and 10-fold concentration, 7 days; measurement = hepatotoxicity; result = no effect

Excerpt of the above (study 1):
target = Casein kinase I isoform gamma-2 (CSNK1G2, Homo sapiens, UniProt P78368); result = 82.2%
target = Tyrosine-protein kinase FRK (FRK, Homo sapiens, UniProt P42685); result = 91.3%
